Assay results pooled from the literature.
Each numbered part is a random draw from the data of one study; scales do not carry over between parts. Changes are numbered by the printed parent chain.

Block 1 — technique: protein binding microarray; form: double-stranded DNA, one strand shown; medium: in vitro; tested at: not given; relative to: not given; reading: higher = stronger binding
Target: Histone acetyltransferase KAT6A, winged helix 2, GST fusion (KAT6A, Homo sapiens, UniProt Q92794, residues 85-181)
Notes: 8-mer, flanks averaged, mean of 2 arrays, mostly near background
Construct (chain): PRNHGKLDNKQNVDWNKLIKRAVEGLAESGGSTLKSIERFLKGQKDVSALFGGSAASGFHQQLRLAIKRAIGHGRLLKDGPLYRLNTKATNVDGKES
Oligonucleotide	E-score
AAGTCTCA	-0.206
CCGTCCCG	0.115
GAGCTGGC	-0.0499
GCTTCTTA	0.0688
GCCTCCAA	0.0559
GAGTTGAC	-0.0673
AGTACTAG	0.0825
GGCTCGTA	-0.0335
ATAAGCAG	0.0762
AAGATGTA	0.00945
AGGTGGTA	-0.114
ACGTAAGA	-0.0583
CAATCTCG	-0.0878
TACGTCGA	-0.129
GTTGGGAA	0.0712
GTTGGGGA	0.0524
GTTCACAA	0.0964
CTCTGTCC	0.0782
CTTGAAGC	0.0216
GAGGGAGC	0.0704
CTCTCTTA	-0.0715

Block 2 — technique: RNA Bind-n-Seq; form: RNA; medium: in vitro; tested at: 365 nM; relative to: no-protein control; reading: higher = stronger binding
Target: RNA binding protein fox-1 homolog 2, RRM domain, GST-SBP tag (RBFOX2, Homo sapiens, UniProt O43251-10, residues 100-194)
Notes: natural RNA segment, single round, ends assumed
Constant ends, left off below: GGGAGUUCUACAGUCCGACGAUC … UGGAAUUCUCGGGUGCCAA
Residues (chain): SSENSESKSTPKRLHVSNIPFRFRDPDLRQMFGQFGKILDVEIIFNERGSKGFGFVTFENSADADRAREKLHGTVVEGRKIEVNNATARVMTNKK
Oligonucleotide	RBNS enrichment (R)
GCAGGACUGGAAGAACAGUGGAGCCCCGUGGGUCUCACCCUUUAAGGAUGCUGAGGCCUAGAGAUGGGAAGUGACUUGCUCAAGGUCACACAAUUGGAUAGUGACAUAGC	0.746
UUGAAACUAUUAUACUUUGAGUUUUAGAUUGGCCAAAUACAUUAAUGUAGUUAAAUUCAUCUUUAAAGUACACAUAUGUGCCUAGAGCCAAAAAAUAAUAAUGAUUUAAU	0.577
CUUGCUAGGCAACCCUAAAUUGGGAAGCAAGUAGCUAGUAUAAAGGCCCUCAAUUGUAGUUGUUUCCAGCUGAAUUAAGAGCUUUAAAGUUUCUGGCAUUAGCAGAUGAU	0.214
UCCCUCCACUGCCUCGAAGAGUCAGUCUGCCCUGCCUUUUCCUUUCGGGCACCACCAGCCAUCCCCGAGUGCCCUGUAGCCACUCACCACUGCUGCCACCUCUCUGGCCA	0.948
UUAUUAAAUCAUGAGGGCAAAAGAGUGUAGAAUGGAAAAAAGUCUCUUGUAUCUAGAUACUUUAAAUAUGGGAGGCCCUUUAACUUAAUUGCCUUUAGUCAACCACUGGA	0.344
CGCACAGAGGUUUUGCUUUAUGCUGUAGAAUACCGACUUUCAUGAUGACAACUUGGUUUAUGCAUGAAUAUUGCAGUAUUUCCAUAUAGCAAAAUAACAUUUCUACCCAG	0.774
UUUCCUAUCUCUAAAAUAUCUACUUCUGUGAAGAAGACUGGCUUACUCAGGCCAGGGCCCUCCUGACGACGGUUUCCUGACUAGAAGAAAGGGACGUGGGUUUGAAGGCA	0.315
CUUUAUAUUUAUAUAGAACAUUGAGGUUGUGUCAAUAAAAACAGUGUUUUGUUUAAAAAAGAGCAGUACCACAUUGUCUGGUCUCAAGUCUGUGCCUGCGAUGGCUGAGU	0.334
UUUUUCUAAGAAGAAAAUUCAGAAGAAAAGUAACUGAGUUUUGUUACUGGUAAAAUGGAAAUACUUCACAGAGUGAAUAAAGAAUACUUUUUUUUUUGUAAAUGUUCUGU	0.557
AAAUUGUUAUAACUUCACACCUUUUUGAAAUCUGCCCUACAAAAUUUGUUUGGCUUAAACGUCAAAAGCCGUGACAAUUUGUUCUUUGAUGUGAUUGUAUUUCCAAUUUC	0.464
UUGAGGGCCUUGACAGAUCGGGCCAGCGCUGACCUCUGUGCUCUGCUUCCUUUCUUUAUCCCUGUUUGUAAACACGGCGCCUCCCUUAAUGUGGCACCAUGCAGAUGUGA	0.792
UUCAUUAGCAAGUGAGUUUGGUGUUUUAUAGGUCACAUAUGUCUGUAUCUACUUAGCCAGAUGCUUGGCCUGGUGGGACCAGGGCUCCACAGAGGCCACAAAAUGUUGCA	3.55

Block 3 — technique: RNA Bind-n-Seq; form: RNA; medium: in vitro; tested at: 200 nM; notes: whole 134-nt RNA, ends assumed; with: 150 mM KCl; relative to: input library; reading: higher = stronger binding
Target: Fragile X messenger ribonucleoprotein 1, C-terminal low-complexity region (Fmr1, Mus musculus, UniProt P35922)
Constant ends, left off below: GGGAGUUCUACAGUCCGACGAUC … UGGAAUUCUCGGGUGUCAAGG
Oligonucleotide	log2 enrichment
ACCAUGCAGGUGGGCAUCUUUGGGAAGUGGGGCAAGGGGGGGAUAGGGAGGGGGGUAACACUUUGGGAACCGGUGGUCCCAGGUCGUUUC	0.345
AAGUCCUGUGCUACACAUCGUAUGUACCGAAUCGGGAAAAAAAGGGUGGGAAAGGGAAAGUAUUAUGUUACGCCGUUCGGAUCUGCACUU	0.538
GUCCUGUGCUACACAUCGUAUGUACCGAAUCGGGGAAAAAGGGGAAAAAGGGGUGGGGAAAGUAUUAUGUUACGCCGUUCGGAUCUGCAC	0.35
CCUGUGCUACACAUCGUAUGUACCGAAUCGGGCCCCCCGGGGCCCCCCGGGGCCCCCCGGGAAAGUAUUAUGUUACGCCGUUCGGAUCUG	-0.866
UGGGAGGUGGAUUUUGUUUAUUUUUUUAGCUCAUUUCCAGGGGUGGGAAUUUUUUUUUAAUAUGUGUCAUGAAUAAAGUUGUUUCUGAAA	0.444
UUCCCAAGAUGGCGGCGGACGUGUCCGUUACUCACCGGCCCCCGCUGAGCCCUAAGUCUGGGGCCGAAGUCGAAGCCGGCGAUGCCGCGG	-2.43
CAAGUCCUGUGCUACACAUCGUAUGUACCGAAUCGGGGUUGGGGUUGGGGUUGGGGAAAGUAUUAUGUUACGCCGUUCGGAUCUGCACUU	1.29
UGGCCCUGGUGGCAUGCGGGGAGGAAGAGGUGGCCUCAUGGAUCGUGGUCGUCCCGGUGGAAUGUUCAGAGGUGGCCGUGGUGGAGACAG	-0.00262
GCGGACCGAGAAAGUCGUUACGAGGAAGAAGAAGAACAAAGUCGAAGUAUGAGCCGGAAGAGGAAGGCAUCUGUGCACAGUUCGGGCCGU	0.469
UCCUGUGCUACACAUCGUAUGUACCGAAUCGGCCCCCCGGGCCCCCCGGGGCCCCCCGGGAAAGUAUUAUGUUACGCCGUUCGGAUCUGC	-0.496
AAGUCCUGUGCUACACAUCGUAUGUACCGAAUCGGGAAAAAGGGUGGGAAAAAGGGAAAGUAUUAUGUUACGCCGUUCGGAUCUGCACUU	0.395
AGUCCUGUGCUACACAUCGUAUGUACCGAAUCAAACCCCCAAAUUUUUAAACCCAAAAAAGUAUUAUGUUACGCCGUUCGGAUCUGCACU	-0.00699
CUCAAGUCCUGUGCUACACAUCGUAUGUACCGAAUCGGAAAGGAAAGGUUUGGAAAGUAUUAUGUUACGCCGUUCGGAUCUGCACUUCCA	-0.628
ACCAUGCAGGUGGGCAUCUUUGGGAAGUGGGGCAAGGGGGGGAUAGGGAGGGGGGUAACACUUUGGGAACAGGUGGUCCCACGUCGUUUC	0.757

Block 4 — technique: protein-binding microarray; form: double-stranded DNA, one strand shown; medium: in vitro; tested at: 250 nM; notes: 60-bp whole probe; with: salmon DNA 0.4 mg/ml; relative to: random background probes; reading: higher = stronger binding; constant ends, left off below: GCCTAGCAC … GTCTTGATTCGCTTGACGCTGCTG
Target: Interferon regulatory factor 7, full length, phosphomimetic (IRF7, Homo sapiens, UniProt Q92985, residues 1-503, S101K/S471D/S472D/S475D/S476D/S477D/S483D/S484D/S487D)
Target sequence (chain): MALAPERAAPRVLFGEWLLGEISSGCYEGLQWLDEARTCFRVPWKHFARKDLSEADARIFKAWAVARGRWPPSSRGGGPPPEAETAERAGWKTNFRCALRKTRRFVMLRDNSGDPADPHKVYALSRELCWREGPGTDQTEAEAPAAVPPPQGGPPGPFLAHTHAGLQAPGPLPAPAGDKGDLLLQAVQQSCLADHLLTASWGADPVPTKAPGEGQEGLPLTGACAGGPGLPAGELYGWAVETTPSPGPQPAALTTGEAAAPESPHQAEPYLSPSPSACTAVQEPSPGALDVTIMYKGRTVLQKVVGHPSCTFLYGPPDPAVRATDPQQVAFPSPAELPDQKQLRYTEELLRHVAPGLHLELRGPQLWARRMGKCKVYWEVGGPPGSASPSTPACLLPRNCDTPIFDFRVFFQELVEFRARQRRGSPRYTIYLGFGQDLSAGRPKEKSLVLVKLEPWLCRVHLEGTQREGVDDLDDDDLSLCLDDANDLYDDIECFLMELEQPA
Oligonucleotide	log fluorescence [z-score]
GACGGTATAGGTATCGGGACGTGCTAG	-0.371
GACGGTTTCCATCTCCTGACGTGCTAG	4.2
TCAGTGGTCTGTTTCTGACTGTGCTAG	-0.261
GACGGTATCGGGTATCTGGACGTGCTA	0.109
ATATATTTATGTATACACACGTGCTAG	0.625
GACGAACCGAGTTTCGAGACGTGCTAG	4.32
TTAGCACTGGGGTTTCGATTAGTGCTA	4.57
GACGGACTGGACTATCGTGACGTGCTA	-0.684
GACGATTTCGGGAGTGGAGACGTGCTA	-0.211
TTAGTTTTCGGACTGGGTTAGTGCTAG	1.16
TTAGGTCTCCTACTGATTTAGTGCTAG	-0.208
TCAAATCTCTCATGTTACACTGTGCTA	0.278
TCAGGTATAAACTTGGGACTGTGCTAG	-0.422
CATTTTTTTTTTCTACTTCTGTGCTAG	1.52
GACGGTATCCTTTTGCTGACGTGCTAG	0.93
GTAGGTATCCTTCTCCTTTAGTGCTAG	-0.0319
GACGGACTCCTTCTCCTGACGTGCTAG	0.000475
GAAAGGTACCATGGTGGCTCGTGCTAG	0.187
TTAGATATCAGTCTCCATTAGTGCTAG	0.455
TGAGATTTCAGACTGGATTAGTGCTAG	-0.142
GACGATTTCGAGTATCGAGACGTGCTA	0.869
GAGGATTTCAGTCTCGAGACGTGCTAG	0.421

Block 5 — target: CCNB1, cyclin fold, Cln2 fusion (human); technique: yeast growth competition, sequencing; medium: yeast; notes: strong parent motif; relative to: not given; reading: higher = stronger binding
Starting sequence: MICAL3 docking peptide (human); LQLRRQLSFSEDS
Variant	normalised enrichment score
Q2E	4.2
E11D	4.88
E11W	1.54
F9Q	0.285
L7R	-0.326
Q2Y	3.84
L3T	3.15
D12V	4.12
S10E	4.57
F9E	0.169
L7A	-0.0698
Q6S	3.33
S8H	2.15
Q2C	5
R4P	1.06
R4I	4.61
F9A	-0.0534
R4F	3.86
D12C	4.27
D12M	3.79
S10Q	3.02
R4D	0.49

Excerpt of the above (block 4):
Oligonucleotide	log fluorescence [z-score]
ATATATTTATGTATACACACGTGCTAG	0.625
GACGAACCGAGTTTCGAGACGTGCTAG	4.32
TTAGCACTGGGGTTTCGATTAGTGCTA	4.57
GACGGACTGGACTATCGTGACGTGCTA	-0.684
GACGATTTCGGGAGTGGAGACGTGCTA	-0.211
TTAGTTTTCGGACTGGGTTAGTGCTAG	1.16
TTAGGTCTCCTACTGATTTAGTGCTAG	-0.208
